Experimental data collected from several papers.
Parts stem from different laboratories: compare values within a part only. Positions count from the first letter of the parent shown.

Study 1 — technique: protein-binding microarray; form: double-stranded DNA, one strand shown; medium: in vitro; tested at: 2540 nM top; notes: 60-bp whole probe; together with: salmon DNA 0.4 mg/ml; reference: random background probes; direction: higher = stronger binding; all sequences stand within: GCCTAGCAC … GTCTTGATTCGCTTGACGCTGCTG
Target: Interferon regulatory factor 3, full length, phosphomimetic (IRF3, Homo sapiens, UniProt Q14653, residues 1-427, S386D/S396D/S398D/S402D/T404D/S405D)
Sequence of UniProt Q14653 (whole entry, unmodified, looked up): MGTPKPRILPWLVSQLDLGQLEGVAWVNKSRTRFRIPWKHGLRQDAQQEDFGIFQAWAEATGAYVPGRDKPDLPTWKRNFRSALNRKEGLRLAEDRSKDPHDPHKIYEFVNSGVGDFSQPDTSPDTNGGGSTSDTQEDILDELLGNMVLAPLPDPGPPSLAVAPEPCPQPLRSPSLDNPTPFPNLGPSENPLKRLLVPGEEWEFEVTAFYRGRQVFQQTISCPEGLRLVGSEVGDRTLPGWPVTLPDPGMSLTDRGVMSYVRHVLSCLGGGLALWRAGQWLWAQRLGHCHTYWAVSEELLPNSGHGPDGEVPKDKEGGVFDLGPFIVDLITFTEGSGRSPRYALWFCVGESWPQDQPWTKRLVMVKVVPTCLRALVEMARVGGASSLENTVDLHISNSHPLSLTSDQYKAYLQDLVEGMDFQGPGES
For `GACGGTATCGTTTTCCTGACGTGCTAG`, “fitted relative affinity” read 4.85 z-score.
For `GACGGTATCGGGTATCGGCACGTGCTA`, “fitted relative affinity” read 1.66 z-score.
For `GACGGTATCGCTCTCGGGACGTGCTAG`, “fitted relative affinity” read 2.93 z-score.
Under “fitted relative affinity”, `GACGTTCTCGGTTTCGGGACGTGCTAG` is recorded as 3.79 z-score.
Under “fitted relative affinity”, `TTTGGTATCCTACTGCTTTAGTGCTAG` is recorded as 2.92 z-score.
For `TTAGATATCGGGTTGCGATTAGTGCTA`, “fitted relative affinity” read 0.454 z-score.
Under “fitted relative affinity”, `TTAGGTATCCTTCTCCTATAGTGCTAG` is recorded as 7.44 z-score.
Under “fitted relative affinity”, `CTTTGTTTTTTTCTATATGCGTGCTAG` is recorded as 1.67 z-score.
`TAAGATCTCAGTTTCGATTAGTGCTAG`: “fitted relative affinity” 3.84 z-score.
`GACGGACTAGACTTTCGGGACGTGCTA`: “fitted relative affinity” 0.14 z-score.

Study 2 — technique: DHFR PCA, deep sequencing; medium: yeast; together with: (+)-ABA 2500 µM; reference: wild-type fitted maximum; direction: higher = stronger binding
Target: ABI1, truncated, D143A, DHFR fusion (Arabidopsis thaliana)
Notes: methotrexate growth selection, single substitutions
Starting sequence: PYL1, truncated, DHFR fusion (Arabidopsis thaliana); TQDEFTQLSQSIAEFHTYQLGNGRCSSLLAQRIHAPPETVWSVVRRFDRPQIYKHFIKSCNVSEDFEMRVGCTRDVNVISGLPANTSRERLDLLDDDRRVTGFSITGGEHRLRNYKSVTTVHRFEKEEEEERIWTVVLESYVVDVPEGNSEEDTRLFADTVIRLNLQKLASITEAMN
`T119M`: “relative binding score” 99.8%.
Under “relative binding score”, `F124Q` is recorded as 104%.
`I12A` — result for “relative binding score”: 82.4%.
`D95A`: “relative binding score” 88.2%.
`W41A` — result for “relative binding score”: 2.29%.
For `V43A`, “relative binding score” read 91.3%.
`R155K`: “relative binding score” 92.2%.
`W134F` — result for “relative binding score”: 109%.

Study 3 — target: CCND2, cyclin fold, Cln2 fusion (human); technique: yeast growth competition, sequencing; medium: yeast; notes: weak parent motif; reference: not given; direction: higher = stronger binding
Starting sequence: WEE2 docking peptide (human); KELRQKLNFSYCE
`R4A` — result for “normalised enrichment score”: -0.101.
For `Q5A`, “normalised enrichment score” read -0.0796.
`K6A`: “normalised enrichment score” 0.0779.
`E2A` — result for “normalised enrichment score”: -0.0117.
`S10A` — result for “normalised enrichment score”: 0.0376.
Under “normalised enrichment score”, `L3A` is recorded as -0.253.

Study 4 — technique: RNA Bind-n-Seq; form: RNA; medium: in vitro; tested at: not given; reference: input RNA pool; direction: higher = stronger binding
Target: RING finger protein unkempt homolog, zinc fingers 1-6, GST-SBP tag (UNK, Homo sapiens, UniProt Q9C0B0, residues 30-357)
Notes: RNA with constant flanks, human and mouse sites, ends assumed
All sequences stand within: GGGAGUUCUACAGUCCGACGAUC … CAACAGAGGAUUGAGCAUCA
Target sequence (chain): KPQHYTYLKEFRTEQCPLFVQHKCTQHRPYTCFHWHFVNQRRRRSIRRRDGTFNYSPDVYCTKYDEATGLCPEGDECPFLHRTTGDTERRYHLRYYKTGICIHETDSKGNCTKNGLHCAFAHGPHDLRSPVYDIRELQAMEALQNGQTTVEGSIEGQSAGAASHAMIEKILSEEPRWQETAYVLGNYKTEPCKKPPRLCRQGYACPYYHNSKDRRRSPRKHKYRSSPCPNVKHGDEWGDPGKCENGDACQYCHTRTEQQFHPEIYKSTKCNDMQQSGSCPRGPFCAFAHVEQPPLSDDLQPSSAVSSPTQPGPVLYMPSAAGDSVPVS
`UUCCCUCGGUUCCAGUCUUCCCUUUAAAAGCCUGUGGCAUUUUUCCUCCUUCUCCCUAACUUUAGAAAUGUUGUACUUGGCUAUUUUGAUUAGGGAAGAGGGAUGUGGUCUCUGAUCUCU` has a bound/input enrichment of 0.26 ratio.
`GCGCGGGCGGUAGGAGGGAGGACCGACGCCAAACCCAGACCGCCGCCGUCGUGCUCCUGCCGCAGCCCGGAGCCGGCCGCUUCGGGGCCCUGGCCGCCGGCCUCCCAGCCGCGUUCUCCU` has a bound/input enrichment of 1.32 ratio.
With `CUGAUGGGACUACUGGAAUCAGGCUUGGUUCAUUUUAAUGAAAAUCACAUAAAGUCAUUUAUGAGACAGCUCAUGGAGGGUCUGGAUUAUUGUCAUAAGAAGAACUUUUUGCAUAGAGAU` the bound/input enrichment was 0.32 ratio.
For `UCAGAGUGGGGUUUUUCUCAAUUUCCUUGGAACUGAUUAAAAAGAAAUACAACAUCAUCAAUAGAUUACAUUAUUCCCUGUGCGGGAUCCAGUUCAAUACGAUGCAUGAGACAUGCUGCA`, the bound/input enrichment was 0.778 ratio.
The bound/input enrichment of `CAACCUCAGAGCCCUGACUUCCUGGACAUCACCAACCCCAAAGCCGUAUUAGAAAACGCACUUAGGAACUUUGCCUGUCUGACCACCGGGGAUGUGAUUGCCAUCAACUAUAAUGAAAAG` is reported as 2.47 ratio.
For `UCGUGUCAGGGCAGGCUUCCUGUCUCAGCCUUCUGAGUAUUGGGAUUACAGUUGUCUGCCUAGCUGAUGUCCUGUCUUCUUUCAGCAGAGGCAUGUGCACCCAACAUGCACAUGAUUAAG`, the bound/input enrichment was 0.087 ratio.
The bound/input enrichment of `AAGGAGGCUGAGAAAGUGGCCCGGGUGAAGGCGCUAUAUGAGGAGCUGGAUCUGCCAGCAGUGUUCUUGCAAUAUGAGGAAGACAGUUACAGCCACAUUAUGGCUCUCAUUGAACAGUAC` is reported as 0.131 ratio.
With `CAGUGUGCAAUUCUUUCUCCGGCAUUUAAAGUUAGAGAGUUCUCUGUCACCGAUGCAGUUCCUUUUCCAAUAUCUCUGGUCUGGAACCACGACUCGGAAGAAACGGAAGGUGUGCACGAG` the bound/input enrichment was 0.267 ratio.

A few entries again (study 4):
`UUCCCUCGGUUCCAGUCUUCCCUUUAAAAGCCUGUGGCAUUUUUCCUCCUUCUCCCUAACUUUAGAAAUGUUGUACUUGGCUAUUUUGAUUAGGGAAGAGGGAUGUGGUCUCUGAUCUCU` has a bound/input enrichment of 0.26 ratio.
`GCGCGGGCGGUAGGAGGGAGGACCGACGCCAAACCCAGACCGCCGCCGUCGUGCUCCUGCCGCAGCCCGGAGCCGGCCGCUUCGGGGCCCUGGCCGCCGGCCUCCCAGCCGCGUUCUCCU` has a bound/input enrichment of 1.32 ratio.
With `CUGAUGGGACUACUGGAAUCAGGCUUGGUUCAUUUUAAUGAAAAUCACAUAAAGUCAUUUAUGAGACAGCUCAUGGAGGGUCUGGAUUAUUGUCAUAAGAAGAACUUUUUGCAUAGAGAU` the bound/input enrichment was 0.32 ratio.
